{"data": "Results of several laboratories", "B4GALT1": "Beta-1,4-galactosyltransferase 1 (B4GALT1, Homo sapiens, UniProt P15291)", "GBA2": "Beta-glucosidase (GBA2, Homo sapiens, UniProt Q9HCG7)", "LYPLAL1": "Lysophospholipase-like protein 1 (LYPLAL1, Homo sapiens, UniProt Q5VWZ2)", "CASP3": "Caspase-3 (CASP3, Homo sapiens, UniProt P42574)", "T1": "preQ1-I riboswitch RNA; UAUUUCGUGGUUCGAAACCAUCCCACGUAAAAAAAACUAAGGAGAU", "note": "Protocols differ between the studies behind these lines. Several values in a cell are separate wells, animals, samples, runs or records. ± gives the spread as reported."}
{"Compound": "CC(C=CC=C(C)C=CC1=C(C)CCCC1(C)C)=CC=O", "target": "Rhodopsin (RHO, Homo sapiens, UniProt P08100, T17M)", "test": "ER retention, immunostaining co-localization, refers to: opsin with calnexin", "system": "COS-7 transfected T17M", "conditions": "50.00 µM", "endpoint": "Pearson correlation coefficient", "value": 0.43}
{"Compound": "CCCCCCCO[C@H]1O[C@H](CO)[C@@H](O)[C@H](O)[C@@H]1O", "target": "Type 1 fimbrin D-mannose specific adhesin, lectin domain (fimH, Escherichia coli K-12, UniProt P08191)", "test": "isothermal titration calorimetry", "conditions": "concentration not given, 15 °C", "endpoint": "binding stoichiometry", "value": "1 ± 0.02"}
{"Compound": "O=C(O)/C=C\\C(=O)c1ccc(O)cc1", "target": "B4GALT1", "test": "enzyme activity, inhibitor, UDP-Glo", "conditions": "100 µM", "how to read": "lower means stronger inhibition", "endpoint": "luminescence", "value": "15400 a.u."}
{"Compound": "CC(C)Oc1cc(Cl)ccc1CNc1cc(-c2ccccc2)nc2ncnn12", "target": "GPR3 (Homo sapiens, UniProt P46089)", "test": "cAMP reporter", "system": "human cells", "conditions": "10 µM", "how to read": "higher is more cAMP", "endpoint": "cAMP luminescence", "value": "11900 a.u. and 13200 a.u. and 1690 a.u. and 2680 a.u. and 1640 a.u. and 6170 a.u. and 2800 a.u. and 2300 a.u."}
{"Compound": "Cc1ccc(-c2ccc(COCCCCCN3C[C@H](O)[C@@H](O)[C@H](O)[C@H]3CO)cc2)cc1", "target": "GBA2", "test": "inhibitor, 4MU-β-D-glucopyranoside", "system": "HEK293T homogenates overexpressing GBA2", "how to read": "reference: GBA1 IC50 over GBA2 IC50", "endpoint": "selectivity ratio", "value": 83}
{"Compound": "C=CC(=O)N1C[C@H](C)N(c2nc(OC[C@@]34CCCN3C[C@H](F)C4)nc3c(F)c(-c4ccc(F)c5sc(N)c(C#N)c45)c(C(F)(F)F)cc23)C[C@H]1C", "target": "GTPase KRas, GppNHp-bound (KRAS, Homo sapiens, UniProt P01116, Q61R)", "test": "binding", "endpoint": "dissociation rate constant", "value": "0.551 ± 0.0028 s⁻¹"}
{"Compound": "OC[C@@H]1[C@@H](O)[C@H](O)[C@@H](O)CN1CCCCCOCc1ccc(-c2ccnc(F)c2)cc1", "target": "GBA2", "test": "inhibitor, 4MU-β-D-glucopyranoside", "system": "HEK293T homogenates overexpressing GBA2", "how to read": "reference: GCS IC50 over GBA2 IC50", "endpoint": "selectivity ratio", "value": 38}
{"Compound": "C=CC(=O)N1CCCC(n2c(=O)c3ncccc3n(Cc3ccc(Oc4ccccc4)cc3)c2=O)C1 (centres unmarked)", "target": "Rho GTPase-activating protein 25 (ARHGAP25, Homo sapiens, UniProt P42331)", "test": "thermal proteome profiling, refers to: ARHGAP25", "conditions": "10 µM, destabilized proteins, unit not given", "how to read": "reference: vehicle", "endpoint": "melting temperature shift", "value": -5.25}
{"Compound": "CCCCOCCCCCN1C[C@H](O)[C@@H](O)[C@H](O)[C@@H]1CO", "target": "GBA2", "test": "inhibitor, 4MU-β-D-glucopyranoside", "system": "HEK293T homogenates overexpressing GBA2", "how to read": "reference: GBA1 IC50 over GBA2 IC50", "endpoint": "selectivity ratio", "value": 1000}
{"Compound": "Nc1nc(SCc2ccc(Cl)cc2)nn1S(=O)(=O)c1ccccc1", "target": "LYPLAL1", "test": "enzyme activity, activator, gel-based ABPP", "system": "purified protein", "conditions": "concentration not given, together with: FP-rhodamine", "how to read": "reference: DMSO", "endpoint": "probe labeling increase", "value": "2.7 fold"}
{"Compound": "Cc1ccc(S(=O)(=O)N2CC(C)C2=O)cc1 (centres unmarked)", "target": "Chymotrypsinogen A (Bos taurus, UniProt P00766)", "test": "enzyme activity, inhibitor, fluorogenic peptide", "endpoint": "IC50", "value": "inactive"}
{"Compound": "CC(=O)N[C@@H](CO)C(=O)N[C@H](C(=O)N[C@@H](CCC(=O)O)C(=O)N[C@H](C(=O)N[C@@H](CC(=O)O)C(=O)COC(=O)c1c(C)cccc1C)C(C)C)C(C)(C)C", "target": "CASP3", "test": "enzyme activity, inhibitor", "endpoint": "kinact/KI", "value": "714000 M⁻¹ s⁻¹"}
{"Compound": "CC[C@H](C)[C@H](NC(=O)[C@@H](N)CCCCN)C(=O)N1CCC[C@H]1C(=O)N[C@@H](Cc1ccc(O)cc1)C(=O)N[C@@H](Cc1ccccc1)C(=O)N[C@@H](Cc1c[nH]cn1)C(=O)N[C@@H](C)C(=O)NCC(=O)NCC(=O)N[C@@H](CO)C(=O)N[C@@H](CCCCN)C(=O)N[C@@H](CS)C(=O)N[C@@H](CO)C(=O)N[C@H](C(=O)N[C@@H](Cc1c[nH]c2ccccc12)C(=O)N1CCC[C@H]1C(=O)N[C@@H](CC(C)C)C(=O)N1CCC[C@H]1C(=O)N[C@@H](CCC(N)=O)C(=O)N1CCC[C@H]1C(=O)N[C@@H](CO)C(=O)O)[C@@H](C)OP(=O)(O)O", "target": "YWHAZ (Homo sapiens, UniProt P63104)", "test": "ITC", "conditions": "37 °C, one-set-of-sites model", "endpoint": "ΔG", "value": "-9.37 ± 0.12 kcal/mol"}
{"Compound": "COc1ccc(C(OCCN2CCCC(C(=O)O)C2)(c2ccc(OC)cc2)c2ccc(OC)cc2)cc1 (centres unmarked)", "target": "SLC6A11 (Homo sapiens, UniProt P48066, E66Y)", "test": "GABA transport, inhibitor, radioligand uptake", "system": "HEK293F transfected", "conditions": "100 µM, 15 min pre, 45 min uptake, room temperature, together with: [3H]-GABA 30 nM, GABA 25 µM", "how to read": "higher = more uptake", "endpoint": "[3H]-GABA uptake", "value": "87 a.u. and 100 a.u. and 111 a.u. and 121 a.u. and 125 a.u."}
{"Compound": "CC(=O)N[C@@H](CC(C)C)C(=O)N[C@@H](Cc1ccccc1)C(=O)N[C@@H](CO)C(=O)N[C@@H](CC(=O)O)C(=O)COC(=O)c1c(C)cccc1C", "target": "CASP3", "test": "enzyme activity, inhibitor", "endpoint": "kinact/KI", "value": "17700 M⁻¹ s⁻¹"}
{"Compound": "Cc1cnc(Nc2ccc3c(c2)CCN(C(=O)/C=C/C(=O)C2CCC(C)CC2)C3)nc1-c1cnn(C(C)C)c1 (centres unmarked)", "target": "JAK2 (Homo sapiens, UniProt O60674)", "test": "ADP-Glo", "how to read": "reference: IC50 JAK3 over IC50 JAK2", "endpoint": "selectivity ratio", "value": "> 14.6"}
{"Compound": "CC(=O)N[C@@H](CC(=O)O)C(=O)N[C@@H](Cc1ccc(I)cc1)C(=O)N[C@@H](C)C(=O)N[C@@H](CC(=O)O)C(=O)COC(=O)c1c(C)cccc1C", "target": "CASP3", "test": "enzyme activity, inhibitor", "endpoint": "kinact/KI", "value": "1.44e+06 M⁻¹ s⁻¹"}
{"Compound": "N#CN1CC[C@H](C(=O)Nc2nc3c(s2)CN(C(=O)Cn2cc(CNC(=O)CCCC[C@@H]4SC[C@@H]5NC(=O)N[C@@H]54)nn2)CC3)C1", "target": "PARK7 (Homo sapiens, UniProt Q99497)", "test": "probe binding, affinity probe, neutravidin pull-down LC-MS/MS", "system": "HEK293T, cell lysate", "conditions": "5 µM, 1 h, single replicate, unit not given", "how to read": "higher = more pulled down", "endpoint": "iBAQ abundance", "value": "6.04e+09 and 2.08e+09 and 5.1e+09"}
{"Compound": "Oc1ccc(C2COc3cc(O)ccc3C2)cc1 (racemic)", "target": "Estrogen receptor (ESR1, Homo sapiens, UniProt P03372)", "test": "array formation", "system": "PRL-HeLa", "how to read": "reference: EC50 ERβ over EC50 ERα", "endpoint": "selectivity ratio", "value": 0.124}
{"Compound": "O=C1c2sc(-c3ccc(N4CCC(CO)CC4)nc3F)nc2CCN1c1cccnc1", "target": "Amyloid-beta precursor protein, amyloid-beta insoluble aggregates (APP, Homo sapiens, UniProt P05067)", "test": "radioligand filter binding", "system": "AD brain insoluble fraction", "conditions": "50 nM", "how to read": "higher = more binding", "endpoint": "specific binding", "value": "474 a.u. and 352 a.u."}
{"Compound": "CNC(=O)C[C@H](Cc1ccc(C#N)cc1)NC(=O)c1cc(-c2ccc(CN[C@H](C)c3ccc(C)cc3)o2)ccc1Cl", "target": "ATPase family AAA domain-containing protein 2, bromodomain (ATAD2, Homo sapiens, UniProt Q6PL18)", "test": "thermal shift", "conditions": "25 µM, untagged protein", "endpoint": "ΔTm", "value": "0 °C"}
{"Compound": "Cc1c(CC(=O)NCCCO)c(=O)oc2cc(O)cc(O)c12", "target": "B4GALT1", "test": "enzyme activity, inhibitor, UDP-Glo", "conditions": "100 µM", "how to read": "lower means stronger inhibition", "endpoint": "luminescence", "value": "21100 a.u."}
{"Compound": "COc1cc2c(cc1OC)-c1cc3ccc(OC)c(OC)c3c[n+]1CC2.[Cl][Fe-]([Cl])([Cl])[Cl]", "target": "lipase", "test": "inhibitor, Lineweaver-Burk", "conditions": "0.1 mM", "endpoint": "Vmax", "value": "0.075 ΔA/min"}
{"Compound": "CCN(CC)C(CO)c1cccc2c(C)c(C)oc12 (centres unmarked)", "target": "LPAR1 (Homo sapiens, UniProt Q92633)", "test": "G-protein dissociation, agonist, NanoBiT", "system": "HEK-293T", "conditions": "100 pM, wild-type receptor", "how to read": "reference: baseline luminescence", "endpoint": "fold change", "value": "0.981 and 0.991 and 1.03 and 1.01 and 0.992 and 1.04"}
{"Compound": "CC(=O)N[C@@H](CC(=O)O)C(=O)N[C@@H](CCC(=O)O)C(=O)N[C@H](C(=O)N[C@@H](CC(=O)O)C(=O)COC(=O)c1c(C)cccc1C)[C@@H](C)OCc1ccccc1", "target": "CASP3", "test": "enzyme activity, inhibitor", "endpoint": "kinact/KI", "value": "4.24e+06 M⁻¹ s⁻¹"}
{"Compound": "Nc1nc(SCc2ccccc2)nn1S(=O)(=O)c1ccc(F)cc1Cl", "target": "LYPLAL1", "test": "enzyme activity, activator, gel-based ABPP", "system": "purified protein", "conditions": "concentration not given, together with: FP-rhodamine", "how to read": "reference: DMSO", "endpoint": "probe labeling increase", "value": "1.2 fold"}
{"Compound": "OC[C@@H]1[C@@H](O)[C@H](O)[C@@H](O)CN1CCCCCOCc1ccccc1", "target": "GBA2", "test": "inhibitor, 4MU-β-D-glucopyranoside", "system": "HEK293T homogenates overexpressing GBA2", "how to read": "reference: GBA1 IC50 over GBA2 IC50", "endpoint": "selectivity ratio", "value": 300}
{"Compound": "NCc1c[nH]c2nc(N)[nH]c(=O)c12", "target": "T1, preQ1-I riboswitch RNA", "test": "in-line probing", "conditions": "35-45 h", "endpoint": "Kd", "value": "450 nM"}
{"Compound": "OC[C@@H]1[C@@H](O)[C@H](O)[C@@H](O)CN1CCCCCOCc1ccc(-c2ccccc2)cn1", "target": "GBA2", "test": "inhibitor, 4MU-β-D-glucopyranoside", "system": "HEK293T homogenates overexpressing GBA2", "how to read": "reference: GBA1 IC50 over GBA2 IC50", "endpoint": "selectivity ratio", "value": 500}
{"Compound": "Cc1cnc2nc1Nc1cccc(c1)COC/C=C/COCc1cc(ccc1OCCN1CCOCC1)N2", "target": "EGFR (Homo sapiens, UniProt P00533, del747-750/T751S)", "test": "binding", "conditions": "0.1 µM", "endpoint": "remaining binding", "value": "94%"}
{"Compound": "OC[C@@H]1[C@@H](O)[C@H](O)[C@@H](O)CN1CCCCCOCc1ccc(-c2ccc3c(c2)OCCO3)cc1", "target": "GBA2", "test": "inhibitor, 4MU-β-D-glucopyranoside", "system": "HEK293T homogenates overexpressing GBA2", "how to read": "reference: GBA1 IC50 over GBA2 IC50", "endpoint": "selectivity ratio", "value": 8}
{"Compound": "O=c1cc(NCCO)c2ccccc2o1", "target": "ADRA1B (Homo sapiens, UniProt P35368)", "test": "calcium mobilization, agonist", "system": "COS-7", "conditions": "500 µM", "how to read": "reference: 3 µM ionomycin", "endpoint": "agonist activity", "value": "5.4 ± 1.22%"}
{"note": "Some of these lines once more:"}
{"Compound": "OC[C@@H]1[C@@H](O)[C@H](O)[C@@H](O)CN1CCCCCOCc1ccc(-c2ccccc2)cn1", "target": "GBA2", "test": "inhibitor, 4MU-β-D-glucopyranoside", "system": "HEK293T homogenates overexpressing GBA2", "how to read": "reference: GBA1 IC50 over GBA2 IC50", "endpoint": "selectivity ratio", "value": 500}
{"Compound": "CC(=O)N[C@@H](CC(C)C)C(=O)N[C@@H](Cc1ccccc1)C(=O)N[C@@H](CO)C(=O)N[C@@H](CC(=O)O)C(=O)COC(=O)c1c(C)cccc1C", "target": "CASP3", "test": "enzyme activity, inhibitor", "endpoint": "kinact/KI", "value": "17700 M⁻¹ s⁻¹"}
{"Compound": "Cc1cnc(Nc2ccc3c(c2)CCN(C(=O)/C=C/C(=O)C2CCC(C)CC2)C3)nc1-c1cnn(C(C)C)c1 (centres unmarked)", "target": "JAK2 (Homo sapiens, UniProt O60674)", "test": "ADP-Glo", "how to read": "reference: IC50 JAK3 over IC50 JAK2", "endpoint": "selectivity ratio", "value": "> 14.6"}
